Published values gathered from unrelated publications.
Each numbered part is a random draw from the data of one study; scales do not carry over between parts.

Series 1
Target: Centromere-binding protein 1, full length, N-terminal tag (CBF1, Saccharomyces cerevisiae, UniProt P17106, residues 1-351)
Chain of UniProt P17106 (whole entry, looked up): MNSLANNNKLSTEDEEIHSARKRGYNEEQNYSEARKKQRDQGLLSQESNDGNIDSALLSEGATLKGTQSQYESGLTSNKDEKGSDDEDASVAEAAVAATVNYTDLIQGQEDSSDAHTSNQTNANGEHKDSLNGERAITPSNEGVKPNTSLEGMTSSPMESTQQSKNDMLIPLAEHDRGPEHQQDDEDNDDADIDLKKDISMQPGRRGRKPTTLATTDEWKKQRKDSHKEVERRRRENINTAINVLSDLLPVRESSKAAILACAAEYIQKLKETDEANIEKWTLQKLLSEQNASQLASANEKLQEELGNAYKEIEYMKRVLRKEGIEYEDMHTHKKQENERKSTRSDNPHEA
Technique: protein-binding microarray
Form: double-stranded DNA, one strand shown
Sample: in vitro
Tested at: 0.8 µM
Notes: whole 60-bp probe, no competitor
Direction: higher = stronger binding
Sequence | fluorescence intensity [a.u.]
CTAATTTATATGACTCACCTGGTAAAACATCTATTCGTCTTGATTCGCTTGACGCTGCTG | 586
GAATTTTACCCTCTACACGTTGTCACCCCTTTCTAGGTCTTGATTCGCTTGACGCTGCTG | 545
GAACTGATAAAACGTTTAATCACGTTAACAAGTTAGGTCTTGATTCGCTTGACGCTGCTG | 1560
CTACCAATTTGAAGACATGTGGCAACCCGTGTTTTCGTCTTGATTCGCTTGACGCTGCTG | 792
CCTAACTACTATATGCACGTCAAATAGCTTCGTACAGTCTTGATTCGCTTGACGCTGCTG | 574
CCTAACTACTATAACTATCACATATAGCTTCGTACAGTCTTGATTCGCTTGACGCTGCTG | 557
CTAACATAAAGGAAGCGCGTGATGTATCAGTAATTCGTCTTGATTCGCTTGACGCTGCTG | 1090
CTAGTCATCTTCGCGCGCGTGCTAAAAAAAACGTTCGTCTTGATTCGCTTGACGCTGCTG | 1240
TGTACGAAGCTATATCACGATCTTATAGTAGTTAGGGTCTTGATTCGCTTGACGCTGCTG | 610
CCTAACTACTATATTCACGCTTAATAGCTTCGTACAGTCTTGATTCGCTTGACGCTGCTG | 510
GAAAACACCAAAAATCACGTTTTCAAAATATGTTAGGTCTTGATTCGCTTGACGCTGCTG | 1570
CTATGGAAGAAAATGGACGTGACGAATCAATAATTCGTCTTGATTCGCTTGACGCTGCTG | 627
GAAGAAAAGTAGGAATTCGTGATTGCTAGTATTTAGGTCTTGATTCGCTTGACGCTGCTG | 496
CTAGTCCCACTTTGCCACAGGAGACGTGGCCTGTTCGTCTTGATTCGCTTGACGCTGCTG | 532
GAAGAGAAAATCTTCAACATCAGGGCTATGTCATAGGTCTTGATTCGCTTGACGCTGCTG | 534
CCTAACTACTATAGCATCACCAGATAGCTTCGTACAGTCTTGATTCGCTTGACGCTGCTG | 514
GAATGTAATCAATTGCATGTGCCAAGGATGATCTAGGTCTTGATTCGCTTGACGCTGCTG | 693
GAAACAGGTTTCCTTCATCTCCTGTATATGGCCTAGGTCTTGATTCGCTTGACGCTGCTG | 475

Series 2
Target: Ras GTPase-activating protein-binding protein 1, RRM domain (G3BP1, Homo sapiens, UniProt Q13283)
Chain of UniProt Q13283 (whole entry, looked up): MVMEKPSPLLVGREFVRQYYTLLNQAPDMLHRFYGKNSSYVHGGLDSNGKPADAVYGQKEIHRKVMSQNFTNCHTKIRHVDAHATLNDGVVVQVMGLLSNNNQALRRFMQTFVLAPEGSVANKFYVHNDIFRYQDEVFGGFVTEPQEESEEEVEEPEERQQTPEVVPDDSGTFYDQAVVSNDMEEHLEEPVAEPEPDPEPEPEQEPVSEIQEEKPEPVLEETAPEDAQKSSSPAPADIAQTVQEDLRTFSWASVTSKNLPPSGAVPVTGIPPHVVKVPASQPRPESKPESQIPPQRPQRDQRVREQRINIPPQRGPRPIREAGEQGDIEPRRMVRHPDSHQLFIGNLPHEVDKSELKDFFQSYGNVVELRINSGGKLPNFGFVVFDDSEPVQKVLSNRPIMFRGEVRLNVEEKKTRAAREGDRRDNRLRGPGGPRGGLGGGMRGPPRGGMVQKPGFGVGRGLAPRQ
Technique: RNA Bind-n-Seq
Form: RNA
Sample: in vitro
Tested at: 1 µM
Notes: whole 134-nt RNA, ends assumed
With: 150 mM KCl
Baseline: input library
Direction: higher = stronger binding
Sequence | log2 enrichment
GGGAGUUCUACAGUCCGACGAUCACCAUGCAGGUGGGCAUCUUUGGGAAGUGGGGCAAGGGGGGGAUAGGCAGGGGGGUAACACUUUGGGAACAGGUGGUCCCAGGUCGUUUCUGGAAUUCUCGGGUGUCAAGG | 0.882
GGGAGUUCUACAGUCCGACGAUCUAACUUUAGAGGAGGAUCUGAUGGAUAUGGCAGUGGACGUGGUUUUGGGGAUGGCUAUAAUGGGUAUGGAGGAGGACCUGGAGGUGGCAAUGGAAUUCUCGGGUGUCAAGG | -0.55
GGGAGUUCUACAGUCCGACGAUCCACAGACAACACGCACCCACACAGACACAGAGGGAAGGGGUUGGGAUGGGGACAGGGUGCACAGCAGGGCGGGGUAUGACCCCAGCCCCUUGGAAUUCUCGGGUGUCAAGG | -0.266
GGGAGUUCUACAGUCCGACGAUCUGGCCCUGGUGGCAUCCGGGGAGGAAGAGGUGGCCUCAUGGAUCGUGGUGGUCCCGGUGGAAUGUUCAGAGGUGGCCGUGGUGGAGACAGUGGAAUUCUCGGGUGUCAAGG | 0.953
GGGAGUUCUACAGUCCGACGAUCCCUGUGCUACACAUCGUAUGUACCGAAUCGGGUUUUUUGGGUUUUUUGGGUUUUUUGGGGAAAGUAUUAUGUUACGCCGUUCGGAUCUGCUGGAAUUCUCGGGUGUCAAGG | -0.198
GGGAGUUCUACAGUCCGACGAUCAAGUCCUGUGCUACACAUCGUAUGUACCGAAUCGGGAAAGGGUUUUUUUGGGAGGGAAAGUAUUAUGUUACGCCGUUCGGAUCUGCACUUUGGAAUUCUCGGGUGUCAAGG | 0.647
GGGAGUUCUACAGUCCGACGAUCAAAUGGUAGUGUGCGGAGUUUUUUUUUCUUCCUUCUUUUAAAAAUGGUUGUUUAAGACUUUAACAAUGGGAACCCCUUGUGAGCAUGCUCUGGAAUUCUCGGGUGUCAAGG | -0.866
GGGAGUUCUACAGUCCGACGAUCCCUCAAGUCCUGUGCUACACAUCGUAUGUACCGAAUCGGGGAGGAGGGAGGGGAAAGUAUUAUGUUACGCCGUUCGGAUCUGCACUUCCAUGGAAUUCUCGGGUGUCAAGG | 0.0821
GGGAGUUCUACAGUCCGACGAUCAGUCCUGUGCUACACAUCGUAUGUACCGAAUCGGUUUUUGGGUUUUUGGUUUUUGGGGAAAGUAUUAUGUUACGCCGUUCGGAUCUGCACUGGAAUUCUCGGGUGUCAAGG | -0.135
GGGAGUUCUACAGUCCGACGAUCUCCUGUGCUACACAUCGUAUGUACCGAAUCGGGGAAAGGGGAAAAAAAGGGGUUUGGGGAAAGUAUUAUGUUACGCCGUUCGGAUCUGCAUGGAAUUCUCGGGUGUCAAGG | 0.795

Series 3
Molecule: LQVDDDSGDPLNLVKA
Read-out: yeast growth
Technique: competitive growth deep sequencing
Form: peptide
Organism: Saccharomyces cerevisiae
Notes: peptide tiling library
Direction: direction not given
target | enrichment score
human cyclin B1-Cln2 fusion | -0.105
human cyclin F-Cln2 fusion | -0.313
human cyclin E1-Cln2 fusion | 0.499
human cyclin D1-Cln2 fusion | 1.62

Series 4
Target: Transcription factor Sp1 (SP1, Homo sapiens, UniProt P08047, residues 1-785, full length assumed)
Chain of UniProt P08047 (whole entry, looked up): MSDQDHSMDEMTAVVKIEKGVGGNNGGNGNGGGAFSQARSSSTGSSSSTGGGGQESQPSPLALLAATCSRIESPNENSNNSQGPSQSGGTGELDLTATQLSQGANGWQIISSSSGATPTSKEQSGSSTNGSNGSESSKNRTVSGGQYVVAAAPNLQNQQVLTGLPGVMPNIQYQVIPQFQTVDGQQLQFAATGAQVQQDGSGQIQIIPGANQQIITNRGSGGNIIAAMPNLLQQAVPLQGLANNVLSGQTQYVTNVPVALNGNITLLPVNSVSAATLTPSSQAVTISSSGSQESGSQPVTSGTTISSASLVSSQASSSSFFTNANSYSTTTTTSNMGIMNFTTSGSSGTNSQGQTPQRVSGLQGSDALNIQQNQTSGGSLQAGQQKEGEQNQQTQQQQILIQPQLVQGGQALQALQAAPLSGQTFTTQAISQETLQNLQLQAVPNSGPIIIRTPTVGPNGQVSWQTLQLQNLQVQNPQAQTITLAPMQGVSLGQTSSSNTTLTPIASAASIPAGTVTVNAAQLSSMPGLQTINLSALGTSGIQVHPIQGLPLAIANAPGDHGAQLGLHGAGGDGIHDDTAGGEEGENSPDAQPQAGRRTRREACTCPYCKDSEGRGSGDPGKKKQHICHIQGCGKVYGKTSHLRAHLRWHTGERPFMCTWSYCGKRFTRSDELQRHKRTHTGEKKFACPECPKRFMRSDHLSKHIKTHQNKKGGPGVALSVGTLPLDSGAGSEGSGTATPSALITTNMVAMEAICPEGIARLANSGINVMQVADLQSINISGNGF
Technique: protein-binding microarray
Form: double-stranded DNA, one strand shown
Sample: in vitro
Tested at: not given
Notes: k-mer, scored over probes, only values ≥0.25
Direction: higher = stronger binding
Sequence | E-score
CCCACCTC | 0.303
AATATATG | 0.29
CACCCCTC | 0.405
CGATATTA | 0.278
GACGCCCC | 0.361
CACGCCCC | 0.492
ACACCCCA | 0.344
AGGTGGGG | 0.373
CGTATTAC | 0.269
GACCCGCC | 0.374
ATATCCCC | 0.304
CATTGCAC | 0.258
CACCCCTA | 0.359
CCCGCACC | 0.259
CTCCCACA | 0.277
ATAAATTA | 0.317
AGGAGGGG | 0.462
TCCCCTCA | 0.303

Series 5
Target: Sal-like protein 4, full length isoform A (SALL4, Homo sapiens, UniProt Q9UJQ4, residues 1-1053)
Chain of UniProt Q9UJQ4 (whole entry, looked up): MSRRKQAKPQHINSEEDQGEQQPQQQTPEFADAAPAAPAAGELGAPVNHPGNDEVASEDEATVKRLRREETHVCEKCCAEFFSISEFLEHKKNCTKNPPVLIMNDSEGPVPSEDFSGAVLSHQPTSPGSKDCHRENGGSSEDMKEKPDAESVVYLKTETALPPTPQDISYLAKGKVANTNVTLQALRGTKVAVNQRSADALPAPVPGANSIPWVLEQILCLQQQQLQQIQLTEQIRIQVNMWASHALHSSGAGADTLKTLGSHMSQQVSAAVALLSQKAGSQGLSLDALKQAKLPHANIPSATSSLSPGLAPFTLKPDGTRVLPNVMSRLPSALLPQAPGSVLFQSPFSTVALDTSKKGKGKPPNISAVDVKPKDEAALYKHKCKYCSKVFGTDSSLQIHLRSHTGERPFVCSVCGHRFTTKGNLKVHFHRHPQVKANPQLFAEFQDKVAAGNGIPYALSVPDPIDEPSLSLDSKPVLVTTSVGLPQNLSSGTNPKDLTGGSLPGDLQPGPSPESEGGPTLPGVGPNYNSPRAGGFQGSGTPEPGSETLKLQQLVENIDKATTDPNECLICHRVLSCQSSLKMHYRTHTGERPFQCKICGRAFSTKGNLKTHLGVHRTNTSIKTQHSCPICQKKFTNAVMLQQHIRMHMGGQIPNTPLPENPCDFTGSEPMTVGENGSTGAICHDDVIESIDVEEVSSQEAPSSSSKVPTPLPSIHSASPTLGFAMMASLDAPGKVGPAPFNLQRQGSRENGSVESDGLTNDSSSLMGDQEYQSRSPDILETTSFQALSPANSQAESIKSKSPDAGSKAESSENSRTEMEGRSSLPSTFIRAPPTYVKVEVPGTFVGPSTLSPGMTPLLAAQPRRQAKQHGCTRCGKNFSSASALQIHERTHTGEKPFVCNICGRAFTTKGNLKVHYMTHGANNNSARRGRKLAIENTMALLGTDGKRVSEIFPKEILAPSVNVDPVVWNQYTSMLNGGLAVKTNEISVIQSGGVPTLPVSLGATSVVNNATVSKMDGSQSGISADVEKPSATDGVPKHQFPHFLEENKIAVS
Technique: universal PBM
Form: double-stranded DNA, one strand shown
Sample: in vitro
Tested at: 600 nM
Notes: 8-mer, flanks averaged, mean of replicates
Direction: higher = stronger binding
Sequence | E-score
GATTTAGA | 0.141
AGAGCTGG | -0.21
ATTCGTAC | 0.196
AAGGATCA | 0.0535
GGTTGGAA | -0.159
CTTACAGA | -0.0335
CACGGATC | -0.244
ACCTGTCT | -0.0792
GGTCGTGA | -0.0777
AGCAAAGC | 0.0801
AACCGCAA | -0.0493
GATCTATA | 0.289
TATGTGCA | 0.164
TTCCCCAA | -0.00857
TTAAGCAA | 0.254
GAAACTAC | 0.107
CTTTGAGA | 0.116
CCCCTGAC | -0.206
CCCTCGGA | -0.223
AGAATCAT | 0.268
ACGCAAAT | 0.00385
CGCATTAG | -0.135
CTTAAATC | 0.166
AATGGATC | -0.0773
CAGTCTTC | -0.178

Single results of other studies
Molecule | target | test | test system | setting | scale | endpoint | value
PhoQ, residues 284 288 289 292 302 303 TTCLQL | PhoP, residues 12 14 15 18 19 SYFRT (Escherichia coli, UniProt P23836) | Sort-seq, item: YFP reporter | E. coli | PhoQ-PhoP variant library, with: 10 µM Mg2+ | baseline: high Mg2+ state, higher = stronger signaling | fold induction | 0.442

Repeated from above (series 4):
Sequence | E-score
CCCACCTC | 0.303
AATATATG | 0.29
CACCCCTC | 0.405
CGATATTA | 0.278
GACGCCCC | 0.361
